Experimental data collected from several papers.
A part holds a random share of what one study measured.
UniProt P35916, sequence (whole entry, looked up): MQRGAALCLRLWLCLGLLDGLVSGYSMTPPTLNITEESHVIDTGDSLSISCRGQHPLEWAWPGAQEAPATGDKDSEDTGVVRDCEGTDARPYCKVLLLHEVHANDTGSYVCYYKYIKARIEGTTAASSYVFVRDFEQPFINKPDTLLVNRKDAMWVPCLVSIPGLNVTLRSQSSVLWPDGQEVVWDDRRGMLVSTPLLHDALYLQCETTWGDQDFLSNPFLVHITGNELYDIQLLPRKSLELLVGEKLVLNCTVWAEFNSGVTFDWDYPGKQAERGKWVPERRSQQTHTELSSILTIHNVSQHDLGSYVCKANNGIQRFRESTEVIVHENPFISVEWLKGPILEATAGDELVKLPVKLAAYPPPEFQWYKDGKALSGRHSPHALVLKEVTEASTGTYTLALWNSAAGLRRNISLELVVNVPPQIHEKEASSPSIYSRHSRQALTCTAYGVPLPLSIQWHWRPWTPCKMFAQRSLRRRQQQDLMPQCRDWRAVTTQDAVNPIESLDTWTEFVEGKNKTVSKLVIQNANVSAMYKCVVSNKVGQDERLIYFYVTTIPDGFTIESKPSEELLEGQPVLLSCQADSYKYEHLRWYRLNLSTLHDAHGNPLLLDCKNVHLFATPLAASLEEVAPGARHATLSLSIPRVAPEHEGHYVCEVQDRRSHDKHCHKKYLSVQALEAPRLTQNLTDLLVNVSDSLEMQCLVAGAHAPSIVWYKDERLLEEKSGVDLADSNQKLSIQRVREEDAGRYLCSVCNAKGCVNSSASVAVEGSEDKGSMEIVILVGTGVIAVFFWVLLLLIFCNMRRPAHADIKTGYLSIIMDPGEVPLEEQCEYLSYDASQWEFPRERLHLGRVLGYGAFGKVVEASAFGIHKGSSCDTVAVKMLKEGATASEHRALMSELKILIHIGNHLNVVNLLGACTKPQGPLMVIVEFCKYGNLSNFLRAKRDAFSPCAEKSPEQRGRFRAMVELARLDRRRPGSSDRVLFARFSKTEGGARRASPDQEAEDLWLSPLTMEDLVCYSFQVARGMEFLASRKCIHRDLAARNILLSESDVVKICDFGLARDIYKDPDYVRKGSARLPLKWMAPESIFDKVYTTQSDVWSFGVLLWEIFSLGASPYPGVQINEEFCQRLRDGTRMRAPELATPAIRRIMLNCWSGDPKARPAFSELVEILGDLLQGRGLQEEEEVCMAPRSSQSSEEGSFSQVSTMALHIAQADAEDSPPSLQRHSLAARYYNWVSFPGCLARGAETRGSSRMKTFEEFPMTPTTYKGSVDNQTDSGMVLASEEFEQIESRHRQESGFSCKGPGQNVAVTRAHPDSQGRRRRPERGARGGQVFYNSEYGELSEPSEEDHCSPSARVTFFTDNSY
UniProt O15197, sequence (whole entry, looked up): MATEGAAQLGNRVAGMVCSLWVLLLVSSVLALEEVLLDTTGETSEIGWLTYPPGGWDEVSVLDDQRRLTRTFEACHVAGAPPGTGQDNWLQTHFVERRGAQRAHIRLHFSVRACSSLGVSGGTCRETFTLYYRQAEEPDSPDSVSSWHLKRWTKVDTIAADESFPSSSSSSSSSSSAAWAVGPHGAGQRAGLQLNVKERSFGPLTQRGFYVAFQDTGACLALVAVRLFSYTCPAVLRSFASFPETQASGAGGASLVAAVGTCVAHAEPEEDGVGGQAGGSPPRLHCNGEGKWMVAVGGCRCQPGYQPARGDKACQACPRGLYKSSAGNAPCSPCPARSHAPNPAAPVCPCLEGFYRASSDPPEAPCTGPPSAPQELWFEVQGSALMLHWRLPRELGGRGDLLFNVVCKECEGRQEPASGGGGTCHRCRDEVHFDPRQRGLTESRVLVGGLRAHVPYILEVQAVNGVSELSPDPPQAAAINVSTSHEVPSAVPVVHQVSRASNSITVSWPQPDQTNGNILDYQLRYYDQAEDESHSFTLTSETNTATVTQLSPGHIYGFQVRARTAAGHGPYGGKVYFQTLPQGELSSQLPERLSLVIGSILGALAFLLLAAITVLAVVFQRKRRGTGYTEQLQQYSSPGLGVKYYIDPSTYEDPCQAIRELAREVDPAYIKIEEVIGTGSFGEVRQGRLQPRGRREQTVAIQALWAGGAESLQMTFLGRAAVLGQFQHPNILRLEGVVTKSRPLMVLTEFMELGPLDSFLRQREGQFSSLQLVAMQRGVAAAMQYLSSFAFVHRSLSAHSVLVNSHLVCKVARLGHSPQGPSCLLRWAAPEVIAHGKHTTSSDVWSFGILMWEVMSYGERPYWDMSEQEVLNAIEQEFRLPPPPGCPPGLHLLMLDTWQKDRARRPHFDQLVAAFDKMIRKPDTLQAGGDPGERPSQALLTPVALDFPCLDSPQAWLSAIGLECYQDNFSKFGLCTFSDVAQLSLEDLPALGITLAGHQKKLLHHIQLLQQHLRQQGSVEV
UniProt P20794, sequence (whole entry, looked up): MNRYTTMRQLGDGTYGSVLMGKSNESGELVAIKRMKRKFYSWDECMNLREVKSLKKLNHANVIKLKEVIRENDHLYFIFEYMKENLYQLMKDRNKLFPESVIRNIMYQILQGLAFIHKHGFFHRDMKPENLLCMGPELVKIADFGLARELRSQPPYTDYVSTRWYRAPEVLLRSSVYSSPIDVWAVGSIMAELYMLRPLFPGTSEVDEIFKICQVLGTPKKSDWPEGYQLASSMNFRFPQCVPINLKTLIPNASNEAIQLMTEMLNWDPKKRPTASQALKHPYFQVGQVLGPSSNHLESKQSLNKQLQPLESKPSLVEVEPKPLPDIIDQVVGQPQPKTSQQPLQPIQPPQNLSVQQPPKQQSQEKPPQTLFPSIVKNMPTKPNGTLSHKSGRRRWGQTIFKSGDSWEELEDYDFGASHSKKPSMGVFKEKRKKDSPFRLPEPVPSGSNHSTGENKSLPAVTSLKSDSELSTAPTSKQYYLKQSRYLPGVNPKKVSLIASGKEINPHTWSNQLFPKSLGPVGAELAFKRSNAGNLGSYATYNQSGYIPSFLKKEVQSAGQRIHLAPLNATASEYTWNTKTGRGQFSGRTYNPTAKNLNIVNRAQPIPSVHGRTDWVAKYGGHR

Study 1
Compound: COc1cc(-c2cn(C3CCc4ccccc4N(CC(F)(F)F)C3=O)nn2)ccc1-n1ccc(C)n1 (stereo not drawn)
Concentration: 1 µM
Mitogen-activated protein kinase 6 (MAPK6, Homo sapiens, UniProt Q16659); cell-free assay, competition with immobilised ligand — remaining binding: 100%.
For Death-associated protein kinase 2 (DAPK2, Homo sapiens, UniProt Q9UIK4); cell-free assay, competition with immobilised ligand: remaining binding read 100%.
The remaining binding was 86% (Glycogen synthase kinase-3 alpha (GSK3A, Homo sapiens, UniProt P49840); cell-free assay, competition with immobilised ligand).
It gave 67% for remaining binding (Tyrosine-protein kinase ABL1, phosphorylated (ABL1, Homo sapiens, UniProt P00519, F317I); binding).
It gave 100% for remaining binding (Leucine-rich repeat serine/threonine-protein kinase 2 (LRRK2, Homo sapiens, UniProt Q5S007, G2019S); cell-free assay, competition with immobilised ligand).
For Protein-tyrosine kinase 2-beta (PTK2B, Homo sapiens, UniProt Q14289); cell-free assay, competition with immobilised ligand: remaining binding read 100%.
Casein kinase I isoform gamma-2 (CSNK1G2, Homo sapiens, UniProt P78368); cell-free assay, competition with immobilised ligand — remaining binding: 100%.
The remaining binding was 100% (Tyrosine-protein kinase Tec (TEC, Homo sapiens, UniProt P42680); binding, competition with immobilised ligand).
It gave 100% for remaining binding (Serine/threonine-protein kinase 17B (STK17B, Homo sapiens, UniProt O94768); cell-free assay, competition with immobilised ligand).
Ephrin type-B receptor 3 (EPHB3, Homo sapiens, UniProt P54753); cell-free assay, competition with immobilised ligand — remaining binding: 100%.
Ephrin type-B receptor 6 (EPHB6, Homo sapiens, UniProt O15197); cell-free assay, competition with immobilised ligand — remaining binding: 100%.
It gave 88% for remaining binding (Cyclin-dependent kinase-like 3 (CDKL3, Homo sapiens, UniProt Q8IVW4); binding, competition with immobilised ligand).
The remaining binding was 100% (Vascular endothelial growth factor receptor 3 (FLT4, Homo sapiens, UniProt P35916); cell-free assay, competition with immobilised ligand).
For Epidermal growth factor receptor (EGFR, Homo sapiens, UniProt P00533, G719C); cell-free assay, competition with immobilised ligand: remaining binding read 100%.
Tyrosine-protein kinase SYK (SYK, Homo sapiens, UniProt P43405); cell-free assay, competition with immobilised ligand — remaining binding: 100%.
Serine/threonine-protein kinase PRP4 homolog (PRPF4B, Homo sapiens, UniProt Q13523); cell-free assay, competition with immobilised ligand — remaining binding: 93%.
It gave 94% for remaining binding (Mitotic checkpoint serine/threonine-protein kinase BUB1 (BUB1, Homo sapiens, UniProt O43683); cell-free assay, competition with immobilised ligand).
Tyrosine-protein kinase ABL1, non-phosphorylated (ABL1, Homo sapiens, UniProt P00519, T315I); cell-free assay, competition with immobilised ligand — remaining binding: 77%.
For Cyclin-dependent kinase 5 (CDK5, Homo sapiens, UniProt Q00535); cell-free assay, competition with immobilised ligand: remaining binding read 100%.
The remaining binding was 99% (Serine/threonine-protein kinase MAK (MAK, Homo sapiens, UniProt P20794); binding, competition with immobilised ligand).

Study 2
Target: Centromere-binding protein 1, full length, His-tagged (CBF1, Saccharomyces cerevisiae, UniProt P17106, residues 1-351)
UniProt P17106, sequence (whole entry, looked up): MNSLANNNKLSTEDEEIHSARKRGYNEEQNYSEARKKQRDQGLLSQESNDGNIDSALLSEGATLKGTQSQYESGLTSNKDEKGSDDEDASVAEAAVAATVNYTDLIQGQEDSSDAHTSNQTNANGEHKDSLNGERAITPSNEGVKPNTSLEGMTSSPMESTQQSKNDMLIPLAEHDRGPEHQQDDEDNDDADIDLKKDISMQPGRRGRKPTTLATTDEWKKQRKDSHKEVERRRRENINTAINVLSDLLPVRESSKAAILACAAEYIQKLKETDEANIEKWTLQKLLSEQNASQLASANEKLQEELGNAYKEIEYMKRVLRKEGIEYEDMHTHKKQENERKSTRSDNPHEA
Technique: competition protein-binding microarray
Form: double-stranded DNA, one strand shown
Medium: in vitro
Concentration: 2 µM
Notes: whole 60-bp probe, lowest competitor level
Added: Pho4 competitor, 0.05 µM
Direction: higher = stronger binding
`AAATTACTAAGTTGCCTTGTGGGTGACGCCGTATGAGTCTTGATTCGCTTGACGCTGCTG` has a fluorescence intensity of 62.3 a.u.
For `CGTCCTAGTGATTTTCACGTGGTATCCATGAGGAAGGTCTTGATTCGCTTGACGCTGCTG`, the fluorescence intensity was 1020 a.u.
`TGACTTGAATTCCAACACGTGGATTATTTCCTCATTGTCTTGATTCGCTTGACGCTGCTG` gave a fluorescence intensity of 1270 a.u.
The fluorescence intensity of `TGCGTTAAAACGGCCAATGTGACAGTAGTTCACTCGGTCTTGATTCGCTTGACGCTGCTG` is reported as 104 a.u.
`GACATGAAGTAGAGCAGCATGCAGACAGAATACATTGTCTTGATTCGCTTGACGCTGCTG` gave a fluorescence intensity of 86.9 a.u.
For `AAACAACTTTAGTGCCGCGTGATGGCGGGGGTTGAAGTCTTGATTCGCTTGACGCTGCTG`, the fluorescence intensity was 195 a.u.
With `TGCGCAACAACTTGTCACTAAACTTTATGTCTAGAAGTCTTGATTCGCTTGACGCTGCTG` the fluorescence intensity was 81.5 a.u.
`CAGTTCTCGACCCATCACGTGTGTTCTCGTTTAGCGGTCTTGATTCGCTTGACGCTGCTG` has a fluorescence intensity of 2440 a.u.

Study 3
Target: Non-receptor tyrosine-protein kinase TYK2 (TYK2, Homo sapiens, UniProt P29597)
UniProt P29597, sequence (whole entry, looked up): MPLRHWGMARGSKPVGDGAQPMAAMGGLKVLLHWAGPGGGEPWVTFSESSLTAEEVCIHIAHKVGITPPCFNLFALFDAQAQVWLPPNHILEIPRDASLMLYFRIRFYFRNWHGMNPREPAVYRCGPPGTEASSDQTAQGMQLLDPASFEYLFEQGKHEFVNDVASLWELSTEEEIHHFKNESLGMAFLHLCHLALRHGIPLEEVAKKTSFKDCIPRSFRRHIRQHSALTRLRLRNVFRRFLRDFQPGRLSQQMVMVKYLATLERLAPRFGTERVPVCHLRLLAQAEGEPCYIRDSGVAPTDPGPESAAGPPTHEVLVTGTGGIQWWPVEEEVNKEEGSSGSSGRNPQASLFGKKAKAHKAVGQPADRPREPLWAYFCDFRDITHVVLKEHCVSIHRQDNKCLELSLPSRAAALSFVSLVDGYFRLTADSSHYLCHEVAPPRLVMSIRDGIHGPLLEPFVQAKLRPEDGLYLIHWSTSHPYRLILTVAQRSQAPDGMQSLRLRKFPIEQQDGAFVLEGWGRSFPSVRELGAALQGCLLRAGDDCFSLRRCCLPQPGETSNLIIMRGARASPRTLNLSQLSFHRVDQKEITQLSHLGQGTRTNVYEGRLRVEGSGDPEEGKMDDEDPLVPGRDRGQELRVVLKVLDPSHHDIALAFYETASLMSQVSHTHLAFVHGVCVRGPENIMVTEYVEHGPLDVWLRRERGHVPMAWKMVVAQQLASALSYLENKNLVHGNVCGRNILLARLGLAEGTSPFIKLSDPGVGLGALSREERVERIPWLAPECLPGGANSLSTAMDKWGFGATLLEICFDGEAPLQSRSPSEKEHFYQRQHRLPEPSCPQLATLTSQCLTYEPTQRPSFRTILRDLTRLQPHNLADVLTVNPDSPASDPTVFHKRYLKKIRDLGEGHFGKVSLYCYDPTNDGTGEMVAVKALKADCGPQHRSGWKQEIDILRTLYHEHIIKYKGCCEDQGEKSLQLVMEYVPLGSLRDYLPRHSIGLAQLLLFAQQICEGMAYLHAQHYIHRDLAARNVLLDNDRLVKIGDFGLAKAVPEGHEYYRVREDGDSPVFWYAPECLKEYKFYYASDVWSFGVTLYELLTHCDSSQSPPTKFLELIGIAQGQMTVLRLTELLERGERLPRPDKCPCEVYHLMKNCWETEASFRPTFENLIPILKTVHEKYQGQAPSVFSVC
Observed: enzyme activity
Mode: inhibitor
Concentration: 0.5 µM
Reference: control
For `CCOC(=O)c1c(C)[nH]c(/C=C2\C(=O)Nc3ccccc32)c1C`, the remaining activity was 89.9%.
For `COc1ccc(CNC(=O)Nc2ncc([N+](=O)[O-])s2)cc1`, the remaining activity was 108%.
`Nc1[nH]nc2nc3ccccc3nc12` has a remaining activity of 107%.
For `OCC(O)CCON=C1C(c2c(O)[nH]c3ccccc23)=Nc2ccccc21` (stereo not drawn), the remaining activity was 9.42%.
`Nc1ccc2ncnc(NCCc3ccc(Oc4ccccc4)cc3)c2c1` has a remaining activity of 99.9%.
`Nc1ncnc2n[nH]c(Nc3ccc(F)cc3)c12` gave a remaining activity of 92.3%.
`N#CC(C#N)=C(N)/C(C#N)=C/c1ccc(O)cc1` gave a remaining activity of 97.4%.
For `O=S(=O)(c1cccc2cnccc12)N1CCCNCC1`, the remaining activity was 81.6%.
For `O=C(Nc1cccc(Nc2cc(Nc3cccc(C(F)(F)F)c3)ncn2)c1)C1CC1`, the remaining activity was 102%.
For `NCCNc1ncc(C(N)=O)c(Nc2cccc(C(F)(F)F)c2)n1`, the remaining activity was 96.7%.
`O=C(CCCc1ccc(-c2ccccc2F)cc1)Nc1ccc(O)cc1` has a remaining activity of 96.5%.
For `CN(C)c1ccc(C=C2C(=O)Nc3ccccc32)cc1`, the remaining activity was 103%.
The remaining activity of `CO[C@H]1C[C@@H]2CC[C@@H](C)[C@@](O)(O2)C(=O)C(=O)N2CCCC[C@H]2C(=O)O[C@H]([C@H](C)C[C@@H]2CC[C@@H](O)[C@H](OC)C2)CC(=O)[C@H](C)/C=C(\C)[C@@H](O)[C@@H](OC)C(=O)[C@H](C)C[C@H](C)/C=C/C=C/C=C/1C` is reported as 107%.
For `CC(C)[C@H](CO)Nc1nc(Nc2cc(N)cc(Cl)c2)c2ncn(C(C)C)c2n1`, the remaining activity was 57.9%.
The remaining activity of `COc1ccc(C(=O)Nc2sc3c(c2C(N)=O)CCCC3)cc1OC` is reported as 117%.

Study 4
Target: Ras GTPase-activating protein-binding protein 1, full length (G3BP1, Homo sapiens, UniProt Q13283)
UniProt Q13283, sequence (whole entry, looked up): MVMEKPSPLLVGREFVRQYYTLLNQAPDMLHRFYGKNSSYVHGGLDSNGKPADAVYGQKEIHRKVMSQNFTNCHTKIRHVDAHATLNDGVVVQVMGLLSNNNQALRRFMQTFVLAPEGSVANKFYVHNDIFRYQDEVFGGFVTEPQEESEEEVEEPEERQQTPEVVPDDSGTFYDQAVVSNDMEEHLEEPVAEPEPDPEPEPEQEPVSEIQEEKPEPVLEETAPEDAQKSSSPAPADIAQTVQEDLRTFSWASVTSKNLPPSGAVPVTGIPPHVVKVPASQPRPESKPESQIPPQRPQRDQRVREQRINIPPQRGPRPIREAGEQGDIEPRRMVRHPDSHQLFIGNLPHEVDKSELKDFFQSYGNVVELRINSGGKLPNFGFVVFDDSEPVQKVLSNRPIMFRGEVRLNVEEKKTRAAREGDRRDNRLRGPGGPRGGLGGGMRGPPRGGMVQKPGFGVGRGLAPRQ
Technique: RNA Bind-n-Seq
Form: RNA
Medium: in vitro
Concentration: 200 nM
Notes: whole 134-nt RNA, ends assumed
Added: 150 mM KCl
Reference: input library
Direction: higher = stronger binding
With `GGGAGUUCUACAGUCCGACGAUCCAAGUCCUGUGCUACACAUCGUAUGUACCGAAUCGGGGAAGGGGAAGGGAAGGGGAAAGUAUUAUGUUACGCCGUUCGGAUCUGCACUUCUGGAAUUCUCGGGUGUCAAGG` the log2 enrichment was 1.17.
For `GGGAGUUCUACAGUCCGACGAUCAAGUCCUGUGCUACACAUCGUAUGUACCGAAUCGGCCCCGGGCCCCGGGGCCCCGGGAAAGUAUUAUGUUACGCCGUUCGGAUCUGCACUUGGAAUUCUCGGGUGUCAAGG`, the log2 enrichment was -1.13.
With `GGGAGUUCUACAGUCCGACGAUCUUAAUAGAUUGAACUUCAAAAAAAAAUUCUUUCUUAAUUUCUGGAUUAAAAAGUAUGCCUGUGUCUUCUAGACCUUUACCAGAAGAUGAUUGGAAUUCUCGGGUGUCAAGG` the log2 enrichment was -1.47.
With `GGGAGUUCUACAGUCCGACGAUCUAACUUUAGAGGAGGAUCUGAUGGAUAUGGCAGUGGACGUGGAUUUGGGGAUGGCUGUAAUGGGUAUGGAGGAGGACCUGGAGGUGGCAAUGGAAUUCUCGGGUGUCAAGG` the log2 enrichment was 0.347.
The log2 enrichment of `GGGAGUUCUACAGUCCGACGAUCGCAGGAAGUAAAAACAAAAAGAAAUGCUUCGGAUAGUGGCAGGGGUGGGGGUUGCUAAGGAAAGGGUGGGAUGGGAGUGGGUAAAGAGUUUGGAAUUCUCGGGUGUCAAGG` is reported as 1.03.
`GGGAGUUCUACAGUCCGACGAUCAAGUCCUGUGCUACACAUCGUAUGUACCGAAUCGGGUUUGGGUGGGUUUUUUUGGGAAAGUAUUAUGUUACGCCGUUCGGAUCUGCACUUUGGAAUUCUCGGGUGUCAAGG` gave a log2 enrichment of 0.31.
The log2 enrichment of `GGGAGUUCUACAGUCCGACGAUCCUCAAGUCCUGUGCUACACAUCGUAUGUACCGAAUCGGGUUGGGUUGGGUUGGAAAGUAUUAUGUUACGCCGUUCGGAUCUGCACUUCCAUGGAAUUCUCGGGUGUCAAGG` is reported as 0.49.
The log2 enrichment of `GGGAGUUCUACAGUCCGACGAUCGUCCUGUGCUACACAUCGUAUGUACCGAAUCGGGGUUUGGGGAAAAAAAGGGGAGGGGAAAGUAUUAUGUUACGCCGUUCGGAUCUGCACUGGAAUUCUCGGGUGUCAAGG` is reported as 0.546.

Some of these lines once more (study 1):
It gave 100% for remaining binding (Serine/threonine-protein kinase 17B (STK17B, Homo sapiens, UniProt O94768); cell-free assay, competition with immobilised ligand).
Ephrin type-B receptor 3 (EPHB3, Homo sapiens, UniProt P54753); cell-free assay, competition with immobilised ligand — remaining binding: 100%.
Ephrin type-B receptor 6 (EPHB6, Homo sapiens, UniProt O15197); cell-free assay, competition with immobilised ligand — remaining binding: 100%.
